# Measured values of several laboratories.
# Numbered parts are unrelated; each lists some results of a single study.

# Set 1 — method: RNA Bind-n-Seq; form: RNA; matrix: in vitro; concentration: 365 nM; relative to: no-protein control; direction: higher = stronger binding
# Target: RNA binding protein fox-1 homolog 2, RRM domain, GST-SBP tag (RBFOX2, Homo sapiens, UniProt O43251-10, residues 100-194)
# Setting: natural RNA segment, single round, ends assumed
# All sequences stand within: GGGAGUUCUACAGUCCGACGAUC … UGGAAUUCUCGGGUGCCAA
# Residues (chain): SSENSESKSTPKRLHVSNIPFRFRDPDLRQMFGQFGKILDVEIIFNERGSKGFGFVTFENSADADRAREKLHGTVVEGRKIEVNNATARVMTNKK
Strand,RBNS enrichment (R)
GAAAGUUAGUAAGCCUAAGUUUUUACAUAAUUGCAUUCCUACAUUCUUGUAAAAUUUAAAUAGCUACCAUUGGCAAUCUGCUUUUUUUCUAAAAUCUGAUUUGCAGCCAG,0.743
ACGUGUAAAUAAGAACACACAUAGUUAACUAAAGAACCAGGCAGUCCCCUGCUUAACUGCAGCCUGGAUAGCUGAGCUGCUGCUGAGGGCACGCCGUGCGCGACGGCUGA,0.322
GUCCAGGGAAUGGAGAAUGGUGUUCCAUUGCCUCUUUUCACAUUUUUUUUCUUUUUCUUUUUUUUUUCUGUUGAAGAUUAACACUAAUUAUCACGUCUGACAAAUGUGUA,1.32
AUGAAAGUGCAAGUCUUUAUUAAUUUGGAUUGCCUGAACAGUGUAUCCCAUGAUGAUGAAGGAAAAUGGAGAGAUUUUUCUUUUUAACUCUGCUGGUCAGAGAUGAAGCC,0.778
CGAUACCCUCACCAGAUUUCUCAGCAGGGGUGGCCUAGGCCUGGAGCCCUCAGCCAGGGCCGUGGUGCCCACACCCAUCCCCCAGACCCAGGCCCUGACCUGCCUUUUCC,0.35
GUGUGUGUAUGCGGUCUGUAACUAUUGCCAUAUAAAUAAAAAAUCCUGUUGCACUAGUGUCCUGCCAUCCCACUGCCACUGAUUCUUUCCUGUGUAAAUUCUGUGUGUGC,1.45
UCUUCCCGAGCUGUUUUUCCGAGCAGUUUUGUUCGUGUCUCUUAAGGAAAUCACCAGCUUUGGCAUCUGACCAACAAACAGUGAGUGGGAGACGUGAUUUCCGAUGCGCA,0.784
UGAGAACCCACCUGACCCAGGCUUGCCCCAAGCAGAGGCUAGAGAAGAGGCUCCUCUUCUCAGUGUUUCCCAAAGGGGCGGCUCUUGUGGUUUCAAAAUCUCUGGCACCA,0.164
AAAAAAAAAAAAAAAAGAGUUUCUGGCUGAUGGGUGACUCAGAGUGCAGGACUGCCUGGCCGUGGGGCAGAGGGGUUUGCCCUUCUCGGAGGGUACCUCCUGUUCCCUGU,0.443

# Set 2 — method: EMSA with sequencing; form: double-stranded DNA, one strand shown; matrix: in vitro; concentration: 10 and 20 nM; relative to: negative control set to 0; direction: higher = stronger binding
# Target: Hepatocyte nuclear factor 3-alpha (Foxa1, Mus musculus, UniProt P35582, residues 1-468, full length assumed)
# Sequence of UniProt P35582 (whole entry, looked up): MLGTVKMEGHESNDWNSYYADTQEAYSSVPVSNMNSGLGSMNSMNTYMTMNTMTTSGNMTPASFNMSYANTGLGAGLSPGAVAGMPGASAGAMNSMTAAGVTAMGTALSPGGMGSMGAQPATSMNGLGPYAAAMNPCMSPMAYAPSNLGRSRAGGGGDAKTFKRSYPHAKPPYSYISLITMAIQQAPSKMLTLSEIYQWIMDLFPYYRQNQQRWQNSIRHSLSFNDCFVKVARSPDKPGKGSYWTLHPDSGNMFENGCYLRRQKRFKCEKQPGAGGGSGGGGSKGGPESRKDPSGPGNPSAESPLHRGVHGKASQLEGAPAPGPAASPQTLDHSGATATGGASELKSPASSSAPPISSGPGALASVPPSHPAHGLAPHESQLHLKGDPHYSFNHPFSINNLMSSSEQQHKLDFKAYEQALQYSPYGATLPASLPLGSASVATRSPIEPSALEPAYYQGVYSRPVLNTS
# Setting: whole designed probe, mean of two concentrations, ends assumed
# All sequences stand within: GTGAGCGGTGCCCATTGATGGGGAAC … TTTCACTGGGATCGTGGGGAC
Strand,normalised bound fraction
CTTCCCTAGCCCTGACTTCCCAAGCCTTAGTCATCACCCTCTCTCCCACCCAGGGCTCAGCACAGTACCTGGCACTGTCAAGCCCTCAATAAATGTTTACTGAGTGCATTAAAAAAAAAAAAAAGATTTTAATGAGTCATGCTTTAACTGAAGATTTTAGTGTAGTCAGTCATTGGGCCTTGGATGCCAAAGG,0.151 ratio
ATGAAACTGGTCCCTGGTGCCAAAAAGGTTGGGAACTGCTGACGTAGTGGATAAAGGGAACAGAGGTAAATAGACATTTAGTGTGAGGTTTCATGTTTACTTAGCTACGAATTAGGCTGTGTTTGCTGTTTGCTGTCACTTTAGGTGTCAGAGGTTAAAATCTCTGGTGTCCTTGTTTCTGTCTCTCCTGTTG,0.497 ratio
CCTAGGACTGTTCCTCCCAGAGCGAGAAAGACCTCCAGGCCCTGAGCCGTGCCAGGAAATGGCCCTAGGATTGCCTCATTAAACACGAAGGGCTATTTACACTGGAGAAACAAATATTTATCTCTGGATCGAGAAGGAGGAAGGGCTTTGGAACCCCAGTCTGGCTCAGCCCTGCCTGGTAGGAGGGGGAGGA,0.188 ratio
CCTTGTATTCTTCAGATCTCATTTTCCCCCAAATTTCTGCAGTGGTTGGCTTCCATTTCAGCATCAGTCACGAAATCTTGATGCTCAGACACAGTAAACAGGGAAGGACATAAAATTAAGTGATTTGGGCGTAGTTTTGAGTCTCACAACTTTAACAGGGATGAGTCATACATTAAAGTATGTCGAAATAAAT,0.0571 ratio
ATGTGGGAACTAATTGAGGACCATGTTTACAATGCGTACAAATCATAAATCAATTAGTACAAGGAAGAATCATATTGATTTACAAAAAGTATTTGTTTACATTGATACTGTCCATGTAAACTTTTTTCAATTCAAAAGAAACACATAGTTCTGTCATAAAGTAGATTTTCTATCCCTTTTATTTTCTGAGCTT,0.456 ratio
TATTGGCATAAGGTTTATAATAGGATCTTGATGAACAGAAATACTGTACACTATTCTTAATTGTAATGTTCATGTCAACGGAGTGCATTAAGAGTAATTTTTAGCTAGAAACATGGTAACTTGTTCCTCTACATGAAACACAAACAGGACAGAGATGGAAATCACTGGTCATAGCAAAAGGACCAAACTTTAG,0.0384 ratio

# Set 3 — method: RNA Bind-n-Seq; form: RNA; matrix: in vitro; concentration: 200 nM; setting: whole 134-nt RNA, ends assumed; with: 150 mM KCl; relative to: input library; direction: higher = stronger binding
# Target: Ras GTPase-activating protein-binding protein 1, full length (G3BP1, Homo sapiens, UniProt Q13283)
# Sequence of UniProt Q13283 (whole entry, looked up): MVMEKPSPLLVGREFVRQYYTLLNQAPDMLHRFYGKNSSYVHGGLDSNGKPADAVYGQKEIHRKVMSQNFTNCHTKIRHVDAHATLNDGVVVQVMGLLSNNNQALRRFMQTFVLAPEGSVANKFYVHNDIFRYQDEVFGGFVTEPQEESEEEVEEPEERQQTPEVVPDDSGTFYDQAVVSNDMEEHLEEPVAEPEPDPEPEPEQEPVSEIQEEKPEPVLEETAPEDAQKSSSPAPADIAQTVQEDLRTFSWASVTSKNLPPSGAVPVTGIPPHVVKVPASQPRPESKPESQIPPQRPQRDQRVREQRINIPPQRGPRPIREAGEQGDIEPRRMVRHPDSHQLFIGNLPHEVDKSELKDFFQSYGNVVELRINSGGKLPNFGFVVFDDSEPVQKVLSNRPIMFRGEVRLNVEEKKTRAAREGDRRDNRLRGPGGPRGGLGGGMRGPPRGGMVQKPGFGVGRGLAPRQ
# All sequences stand within: GGGAGUUCUACAGUCCGACGAUC … UGGAAUUCUCGGGUGUCAAGG
Strand,log2 enrichment
CCUGUGCUACACAUCGUAUGUACCGAAUCGGGAAAAAAGGGAAAAAAGGGAAAAAAGGGGAAAGUAUUAUGUUACGCCGUUCGGAUCUGC,-0.532
ACCAUGCAGGUGGGCAUCUUUGGGAAGUGGGGCAAGGGGGGGAUAGGGAGGGGGGUAACACUUUGGGAACAGGUUGUCCCAGGUCGUUUC,1.12
CUGUGCUACACAUCGUAUGUACCGAAUCGGGGUUUUUGGGGUUUUUUUGGGGUUUUUGGGGAAAGUAUUAUGUUACGCCGUUCGGAUCUG,-0.328
UCCUGUGCUACACAUCGUAUGUACCGAAUCGGGGAAAGGGGAAAAAGGGGUUUUUGGGGAAAGUAUUAUGUUACGCCGUUCGGAUCUGCA,0.783
GUCCUGUGCUACACAUCGUAUGUACCGAAUCGGGGUUUUUGGGGUGGGGAAAAAGGGGAAAGUAUUAUGUUACGCCGUUCGGAUCUGCAC,0.457
CACAGACAACACGCACCCACACAGACACAGAGGGAAGGUGUUGGGAUGGGGACAGGGUGCACAGCAGGGCGGGGUAGGACCCCAGCCCCU,1.36
UGGGAGGUGGAUUUUGUUUAUUUUUUUAGCUCAUUUCCAGGGGUGGGAAUUUGUUUUUAAUAUGUGUCAUGAAUAAAGUUGUUUUUGAAA,-0.0268
UGGCUAGUCAGCAGCGGAUGUCCCCUCCAGGUUAAGAAAGCCGAACCAGAGCCGAUGCGAGAGGAGGAGAAAAUGAUUCCUCCUACGAAA,0.0591
CACAGACAACACGCACCCACACAGACACAGAGGGAAGGGGUUGGGAUGGGGACAGGGUGCAAAACAGGGCGGGGUAGGACCCCAGCCCCU,1.72
UGGCCCUGGUGGCAUGCGGGGAGGAAGAGGUGGCCUCAUGGAUCGUGGUGGUCCCGGUGGAAUGUUCCGAGGUGGCCGUGGUGGAGACAG,0.0771

# Set 4 — method: competition protein-binding microarray; form: double-stranded DNA, one strand shown; matrix: in vitro; concentration: 2 µM; with: Cbf1 competitor, 0.05 µM; direction: higher = stronger binding; all sequences stand within: … GTCTTGATTCGCTTGACGCTGCTG
# Target: Phosphate system positive regulatory protein PHO4, full length, GST-tagged (PHO4, Saccharomyces cerevisiae, UniProt P07270, residues 1-312)
# Setting: whole 60-bp probe, lowest competitor level
# Residues (chain): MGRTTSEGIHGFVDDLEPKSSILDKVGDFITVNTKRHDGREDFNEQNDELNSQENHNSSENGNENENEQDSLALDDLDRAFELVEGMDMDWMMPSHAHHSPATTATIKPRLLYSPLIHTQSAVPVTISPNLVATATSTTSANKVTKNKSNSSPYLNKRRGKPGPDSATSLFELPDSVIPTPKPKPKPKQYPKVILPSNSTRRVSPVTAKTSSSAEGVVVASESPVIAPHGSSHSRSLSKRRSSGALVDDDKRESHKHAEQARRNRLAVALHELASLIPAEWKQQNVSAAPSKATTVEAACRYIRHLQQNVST
Strand,fluorescence intensity [a.u.]
TAATAATATTTATTACACGTGATGGAATATATCCTG,15400
TACTTTCTACGCGGCCACGTGCAATTAAAAGATGGC,18500
CTTTCCCGATCTTGTCGCGTGGGTGTAGCACATTTG,9750
GTATTCTAGCAGCCGCTCGTGCAAAGTGTTCAATGC,9130
CAACCGCATCGGCCCAACCTGATCTTGCAATTAGCA,2790
GTCTTGTCTCATTGTCACCGAACTTTCCCCACTTCA,4460
AAATTACTAAGTTTTCACGTGTCCTACCCCGTATGA,12100
AAATTACTAAGTTGTAATGTGGGTGACGCCGTATGA,4640
TTTGCCTGGCAATATAACGTGCGATAGGTATTCATC,8490
AAATTACTAAGTTGCCCGGTGGGTGACGCCGTATGA,3860
TGCGCAACAACTTGGGCAGTGGGTGTATGTCTAGAA,3540
GTCTTGTCTCATTGGACGGTGGGTGTCCCCACTTCA,5220
ATTCGAAATGATTCGGGCGTGCAAATGAAGCTCTTG,5980
TGACTCAAAATATTTGACATACTGTTCTATGGCTTT,2960
AATCACCAATGGCAAAGCGTGCAAAATCAACATTTG,7120
TGCGCAACAACTTGTCACGTCACTTTATGTCTAGAA,4550
CGTCCTAGCGATTTCCACGTGTTTTCCATGAGGAAG,17000
CAAGGGATTTTGACGCCCGTGACGGAGGATGATTTG,6080
CAATGAAGTTAATATCACATGTTATGATCCACCAAG,9810
CGTCCTAGTGATTGGCCGGTGGGTGCCATGAGGAAG,5940
AAATTACTAAGTTGGCCGGTGGGTGACGCCGTATGA,3550
AAGTTGAGGCTGAAGCAGGTGATGCTGGAACAAAGA,4570
AAAAGAGAAGATACCCACGTGCCGAAAAAATAAAGT,16300
GAACAAGGTGCCCGTCACATGGCAGAAGGCTACGCC,8010

# Some of these lines once more (set 4):
Strand,fluorescence intensity [a.u.]
GTCTTGTCTCATTGGACGGTGGGTGTCCCCACTTCA,5220
GTCTTGTCTCATTGTCACCGAACTTTCCCCACTTCA,4460
CTTTCCCGATCTTGTCGCGTGGGTGTAGCACATTTG,9750
AAATTACTAAGTTGGCCGGTGGGTGACGCCGTATGA,3550
AAATTACTAAGTTTTCACGTGTCCTACCCCGTATGA,12100
GTATTCTAGCAGCCGCTCGTGCAAAGTGTTCAATGC,9130
ATTCGAAATGATTCGGGCGTGCAAATGAAGCTCTTG,5980
